Published values from different studies.
Each numbered part is a random draw from the data of one study; scales do not carry over between parts. Substitutions count along the parent as printed.

Series 1
Target: Histone acetyltransferase KAT6A, winged helix 2, GST fusion (KAT6A, Homo sapiens, UniProt Q92794, residues 85-181)
Technique: protein binding microarray
Molecule type: double-stranded DNA, one strand shown
Medium: in vitro
Concentration: not given
Notes: 8-mer, flanks averaged, mean of 2 arrays, mostly near background
Reference: not given
Reading: higher = stronger binding
Construct (chain): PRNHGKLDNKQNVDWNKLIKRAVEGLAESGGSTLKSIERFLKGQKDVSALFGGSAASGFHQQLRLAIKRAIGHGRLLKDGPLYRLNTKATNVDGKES
| Strand | E-score |
| --- | --- |
| CCTATACC | -0.15 |
| CACGTGGG | -0.159 |
| ACCGTAGT | -0.242 |
| AAGCTTAT | 0.0139 |
| ATAATCTA | -0.0704 |
| ACACTATA | -0.106 |
| GACGGGGC | 0.0885 |
| AAATCATC | -0.0273 |
| AAGGCCAA | -0.0326 |
| ACGGCTAT | -0.168 |
| AAATTGTA | 0.00853 |
| ACTGTCCA | -0.0438 |
| CTGTCAAC | -0.0337 |
| CAGAGGCC | -0.0981 |
| ACCGCATA | 0.0304 |
| AGATTGAC | -0.0561 |
| AAACTCTC | 0.175 |
| ATACATAT | 0.0863 |
| TTAAGCAA | 0.0227 |
| CATCGCCA | 0.00439 |
| AGACCCGC | 0.0993 |
| GCCGGCAC | 0.221 |
| CTTAAATC | -0.0169 |
| ATACCGCG | 0.0524 |
| TACCGAAA | -0.0916 |

Series 2
Target: Sal-like protein 4, full length isoform A (SALL4, Homo sapiens, UniProt Q9UJQ4, residues 1-1053)
Chain of UniProt Q9UJQ4 (whole entry, looked up): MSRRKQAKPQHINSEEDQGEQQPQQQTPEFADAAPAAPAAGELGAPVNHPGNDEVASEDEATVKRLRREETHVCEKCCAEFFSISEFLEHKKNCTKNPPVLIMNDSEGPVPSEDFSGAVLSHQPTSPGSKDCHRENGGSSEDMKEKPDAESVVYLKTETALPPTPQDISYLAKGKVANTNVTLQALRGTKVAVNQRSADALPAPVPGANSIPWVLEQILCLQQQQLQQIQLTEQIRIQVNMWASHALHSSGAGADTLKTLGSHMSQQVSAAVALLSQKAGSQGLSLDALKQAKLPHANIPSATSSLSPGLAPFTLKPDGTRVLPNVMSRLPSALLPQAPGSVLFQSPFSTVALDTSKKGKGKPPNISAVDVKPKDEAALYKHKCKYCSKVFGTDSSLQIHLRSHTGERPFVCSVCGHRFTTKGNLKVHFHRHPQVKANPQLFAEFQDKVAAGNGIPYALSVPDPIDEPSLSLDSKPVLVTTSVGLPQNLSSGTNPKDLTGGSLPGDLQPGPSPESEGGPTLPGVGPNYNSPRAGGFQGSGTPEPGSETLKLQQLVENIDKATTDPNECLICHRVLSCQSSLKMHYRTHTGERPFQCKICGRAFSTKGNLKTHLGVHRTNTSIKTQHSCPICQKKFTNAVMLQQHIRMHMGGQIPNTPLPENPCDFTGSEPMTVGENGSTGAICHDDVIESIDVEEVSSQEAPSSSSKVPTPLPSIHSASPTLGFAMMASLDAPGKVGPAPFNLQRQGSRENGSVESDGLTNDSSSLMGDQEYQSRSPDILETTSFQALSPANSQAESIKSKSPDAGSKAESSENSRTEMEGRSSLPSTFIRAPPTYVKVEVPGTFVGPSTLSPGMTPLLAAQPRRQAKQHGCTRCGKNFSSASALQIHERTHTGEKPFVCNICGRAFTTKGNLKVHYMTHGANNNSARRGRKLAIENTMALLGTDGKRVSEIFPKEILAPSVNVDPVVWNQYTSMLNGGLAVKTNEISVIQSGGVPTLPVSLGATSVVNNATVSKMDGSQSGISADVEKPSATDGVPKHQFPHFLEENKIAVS
Technique: universal PBM
Molecule type: double-stranded DNA, one strand shown
Medium: in vitro
Concentration: 600 nM
Notes: 8-mer, flanks averaged, mean of replicates
Reading: higher = stronger binding
| Strand | E-score |
| --- | --- |
| AGAGTAGG | 0.083 |
| GACTTACC | -0.0286 |
| ATTGCGTG | -0.0169 |
| ACTTCAAA | 0.105 |
| CTCGAAAC | -0.0585 |
| ACCCAGAG | -0.181 |
| CCGCTTGC | -0.19 |
| GGGTAAAA | 0.111 |
| CCGGTAGC | -0.402 |
| CCTCTAAA | -0.00348 |
| ACTGGGAG | -0.289 |
| TGATTGAA | 0.208 |
| CAGCGACC | -0.379 |
| AAAATGCC | 0.156 |
| GGGTATTA | 0.146 |
| TGACATAA | 0.315 |
| CCGCTGAC | -0.261 |
| ATACCAAG | 0.154 |
| AATCGCAC | 0.127 |
| GCTAATCA | 0.172 |
| ACAGCTGT | -0.18 |
| CTCCTATA | 0.162 |
| TCAACGCA | 0.0362 |
| CAGGACGG | -0.182 |
| GCACGGCC | -0.336 |

Series 3
Target: CCNB3, cyclin fold, Cln2 fusion (human)
Technique: yeast growth competition, sequencing
Medium: yeast
Notes: weak parent motif
Reference: not given
Reading: higher = stronger binding
Starting sequence: GMNC docking peptide (human); KNAKRNLSSEFAN; partner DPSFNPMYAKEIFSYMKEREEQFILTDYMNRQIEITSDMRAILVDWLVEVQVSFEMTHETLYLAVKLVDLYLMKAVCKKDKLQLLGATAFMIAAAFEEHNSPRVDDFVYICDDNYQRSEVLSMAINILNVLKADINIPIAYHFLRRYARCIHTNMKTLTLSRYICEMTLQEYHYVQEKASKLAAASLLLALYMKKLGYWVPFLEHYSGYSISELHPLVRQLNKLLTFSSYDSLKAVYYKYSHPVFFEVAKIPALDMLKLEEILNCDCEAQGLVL
| Substitution | normalised enrichment score |
| --- | --- |
| A3P | -0.75 |
| S8I | 0.29 |
| N2P | 0.417 |
| K4V | 0.121 |
| S9W | 0.47 |
| F11G | -0.0103 |
| S8L | 0.77 |
| N6F | -0.0953 |
| K4N | -0.00751 |
| N6E | 0.45 |
| S9D | 0.502 |
| A12R | 0.271 |
| L7G | 0.147 |
| F11I | -0.0343 |
| R5L | 0.0671 |
| A3K | 0.278 |

Series 4
Target: RNA binding protein fox-1 homolog 2, RRM domain, GST-SBP tag (RBFOX2, Homo sapiens, UniProt O43251-10, residues 100-194)
Technique: RNA Bind-n-Seq
Molecule type: RNA
Medium: in vitro
Concentration: 365 nM
Notes: natural RNA segment, single round, ends assumed
Reference: no-protein control
Reading: higher = stronger binding
Target sequence (chain): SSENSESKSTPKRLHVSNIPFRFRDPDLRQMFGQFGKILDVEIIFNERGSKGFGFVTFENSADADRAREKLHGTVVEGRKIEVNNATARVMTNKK
| Strand | RBNS enrichment (R) |
| --- | --- |
| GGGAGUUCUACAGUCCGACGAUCAUUGCAAAGAUGUAAAAUAUGCCAGAUGUGUGUGAGUUGGAAAUCAAAAAAAGAAAAAUAAAAUAUGAAAGAAUUCACUGAUUGUCUCACAAGUCACUGGAUGCCUCGGUUGGAAUUCUCGGGUGCCAA | 3.17 |
| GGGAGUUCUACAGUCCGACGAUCGCGGAUCUUGUAUUUCGUGCCGGGAUGGGGUUGAGAUAGAGAGUAUAGUGAAGAAGAGUCAAGCGUCAGAUAUAUUCUCCCAGUUGAUCCCAAUAUCUGCCCUAAGUGAUUGGAAUUCUCGGGUGCCAA | 0.915 |
| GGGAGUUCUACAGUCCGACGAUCUAUUAUGGAAAGGAGUACAGGACCUCUUCAGUCUUCCCCUUACCAGAGGUAGCCUCUGCAAAUGGCAUACCAGAUGGGACUCUAAGAUGCUUGUGUGGUGGCUUCUUGUCUGGAAUUCUCGGGUGCCAA | 0.61 |
| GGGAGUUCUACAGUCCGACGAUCCAUCCCAGUGUAGGCUCUGAGGCCACAUGGAAACUCUAGAUGGUUCUGAUCACUCUAGCCACCGGAGGAUGAAAGGGAUCUUUUGCAUAGCAGAGGAUUUUAUACACAAAUGGAAUUCUCGGGUGCCAA | 0.271 |
| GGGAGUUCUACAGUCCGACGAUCGUACUAAUGCUAAUAAUUCCAUCAAAAUUUGCCUGUGGAACAUAUAUUGUCCUUAACUUUAAGAUGUCAUUUCCUGAGACAGACUGUAUGAAGCUAUUGUCAGCUUCUCUUGGAAUUCUCGGGUGCCAA | 1.83 |
| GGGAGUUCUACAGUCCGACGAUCAACCUGGGUUAAAGACACCAGCACUUCUGCUUGCUGGGCUGGCUGGACCUGUGAAGCCAUGGGCAGGUAGUGCCCUCUUGAGAGUCAUUUUAUUUGGCCACCUUCAGGUGUGGAAUUCUCGGGUGCCAA | 0.593 |
| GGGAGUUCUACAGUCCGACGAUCUUUAUUAUAUCUAAGCUCUGUAGCAGGAUUCAUGUCGUUCUUUGACAGUUCUUUCUCUUUCCUGUAUAUGCAAUAACAAGGUUUUAAAAAAAUAAUAAAGAAGUGAGACUUGGAAUUCUCGGGUGCCAA | 0.429 |
| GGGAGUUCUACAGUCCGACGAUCAACCGGCAUGGAUGUGACCGGAAUGCCAUGGCCUAUCCAAGAGGAAAGGUGACCUCAGAUGCACCUGUUUUCAGCCUGUGCUUUUGUUCUAGUAAAGACAUUUAAACCAAUGGAAUUCUCGGGUGCCAA | 0.354 |
| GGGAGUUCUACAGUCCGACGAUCCUUCAUGGGAUUGGUGCACCCUGAAGACCACAAAUUAAAUAAAUAUCAUGACUGGCUUUGGGAAAAUCAUGAAAAAUUAAGUCUAUCUUAAACUCUGCAGCUUUCAAGCUUGGAAUUCUCGGGUGCCAA | 0.318 |
| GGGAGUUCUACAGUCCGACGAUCCAGACCGGCUGACCACUCCUUUUGGAGACGGCAGGAGGCCUGAGCGAUCCGUACUCAGAACGUCCAGGAGAGACGCAUGGCCCGAAGUCAAAGUGCUGGAAUUUUCCAAAUGGAAUUCUCGGGUGCCAA | 3.03 |
| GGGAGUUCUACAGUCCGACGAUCGUCCUUUUGAAGACAGCUAGCUAAAUUUGCCUGCCAAAAGAUGUCAAUUAUUGAAUUGAUACCUGUUUCUAGCAAAUAUAUGACAUGGCCUAGUGUCUUAAUUUUUGUCCUGGAAUUCUCGGGUGCCAA | 4.42 |
| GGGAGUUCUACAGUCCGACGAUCAAAUAAUACUUUAGGGUGGCACUGACCGCUAUACCAGCAGCCCCAUGAGCACUCAAAGUGCCUUUCGAACCAUAAUGCCAUCUUGAAUUUGGGUCCUCUCGGCCCCAACUUGGAAUUCUCGGGUGCCAA | 0.217 |

A few entries again (series 3):
| Substitution | normalised enrichment score |
| --- | --- |
| L7G | 0.147 |
| S8L | 0.77 |
| K4N | -0.00751 |
| S9W | 0.47 |
| S9D | 0.502 |
| N2P | 0.417 |
| F11I | -0.0343 |
| S8I | 0.29 |
| F11G | -0.0103 |
| K4V | 0.121 |
| A3P | -0.75 |
